Experimental data from different studies.
Compare with care: the assays were run in different laboratories. Numbers after ± are the reported error.

SMILES	cell line	effect on	method	time	IC50
CN(C)/C=C/C(=O)c1ccc2[nH]c3ncc(-c4ccc(N5CCN(C)CC5)cc4)cc3c2c1	Ba/F3 NPM-ALK	cell proliferation	[3H]-thymidine incorporation		0.39 µM
O=C(/C=C/c1ccc(-c2ccccc2)cc1)N[C@@H]1O[C@H](CO)[C@@H](O)[C@H](O)[C@H]1O	human T-lymphocyte	cell growth or viability		72 h	192 µM
CCCCCCCC(=O)O[C@H]1[C@H](C)O[C@@H](O[C@H]2[C@H](N(C)C)[C@@H](O)[C@H](O[C@H]3[C@@H](CC=O)C[C@@H](C)[C@@H](O[C@H]4CC[C@H](N(C)C)[C@@H](C)O4)/C=C/C=C/C[C@@H](C)OC(=O)C[C@@H](O)[C@@H]3OC)O[C@@H]2C)C[C@@]1(C)O	GES1	cell growth or viability	CCK-8	72 h	12.1 µM
Cc1cc(C)c([N+]#[C][Pt-]([Cl])([Cl])=[C](Nc2cccc(CN[C](Nc3c(C(C)C)cccc3C(C)C)=[Au][Cl])c2)Nc2c(C)cc(C)cc2C)c(C)c1	MRC5	cell growth or viability			> 100 µM
Clc1nc2ccccc2cc1-c1nc2cc(Br)ccc2[nH]1	L02	cell growth or viability	MTT	48 h	> 100 µM
O=C(/C=C/c1ccc(-c2ccccc2)cc1)NC(=O)N[C@@H]1O[C@H](CO)[C@@H](O)[C@H](O)[C@H]1O	human T-lymphocyte	cell growth or viability		72 h	141 µM
O=C(/C=C/c1ccccc1)OCCCC[P+](c1ccccc1)(c1ccccc1)c1ccccc1	L02	cell growth or viability	SRB	48 h	59.8 µM
OC[C@H]1[C@@H](O)[C@@H](O)CN1CCc1ccccc1	CEM-DNR daunorubicin resistant		MTS	72 h	99 ± 11 µM
Fc1ccc2[nH]c(-c3cc4ccccc4nc3Cl)nc2c1	BEL-7404	cell growth or viability	MTT	48 h	> 100 µM

Repeated from above:
SMILES	cell line	effect on	method	time	IC50
O=C(/C=C/c1ccc(-c2ccccc2)cc1)N[C@@H]1O[C@H](CO)[C@@H](O)[C@H](O)[C@H]1O	human T-lymphocyte	cell growth or viability		72 h	192 µM
